# Published values of several laboratories.
# Each numbered part is a random draw from the data of one study; scales do not carry over between parts.

# Series 1 — technique: RNA Bind-n-Seq; molecule type: RNA; sample: in vitro; tested at: 365 nM; baseline: no-protein control; direction: higher = stronger binding
# Target: RNA binding protein fox-1 homolog 2, RRM domain, GST-SBP tag (RBFOX2, Homo sapiens, UniProt O43251-10, residues 100-194)
# Setting: natural RNA segment, single round, ends assumed
# Shared flanks, not repeated: GGGAGUUCUACAGUCCGACGAUC … UGGAAUUCUCGGGUGCCAA
# Residues (chain): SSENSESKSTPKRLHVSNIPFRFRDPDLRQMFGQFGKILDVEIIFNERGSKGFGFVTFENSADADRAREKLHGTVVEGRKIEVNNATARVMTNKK
Oligonucleotide,RBNS enrichment (R)
AGUCUUCUUACAUUGUUGGUUCUACUUACAUACUACUGGUCCAACUCUCAUGCUGUUUCUCUCAGAUGUUCCCAUGAUGGUUGCCAAGGACACUUGAUAGAAAGACUACU,0.365
CAGAAACUGUUCACAAAAGUCAACUAGCUGGCUCAGUUUUGCUGGCUUUGUGUAGAUUUGUGUAGAGCAGGAAAGCCAAGUUCACAGGUUGGGGUGCCUUCAUUUGCAUG,2.15
AAUAACAAACAUUGUCCUCUCCAGAAAGUCCUUUCUUUCUCCAUACUGUAGUCCUAUUGAGAAGACAUUUCGUCUCUGAGAAAAAAGGAUGGAACUAUGGGUUCUCUUCG,0.351
ACGCUCUGCUGGUCAGUGGCGGCUGUCCCCUCCCCAGCCCAGCCGCCCAGCCACAUGUGUCUGCCUGACCCGUACACACCAGGGGUUCCGGGGUUGGGAGCUGAACCAUC,0.404
AUAGUCAGGCUGCAAAUUUCCAAACUUUUAUGCUUUGCUUCCCUUAUUUAUAAGGGAAUGCCUUUAAAAGCACCCAAGUCACCUGUUGAACACUUUGCUGCUUAGAAAUU,0.266
CAGAAGUUGAGGCCAAGGGAGAAUGGUAGGCACAGAAGAAACAUGGCAAACUGCUCUGUGCUUUCAAACCAAAGUGUUCCCCCCAACCCCAAAUUUGUCUAAGCACUGGC,0.329
GAUCAUAAAGAGCUAUUUUUGACACCCCCCCCCCACUUUUUUAACAUUUAGAGUUAGUAAGGGUUUUAUAUCUCUUCUGUCCAUAUUGUUUUCAAAGGAAUGAGGUGUUU,0.445
UUAGAUCAUUGAAAGGUUAACUAACAUGAGAAUUUCAGAGCAAAUUCCAAUACUCUUUUAAAAAGCGUGUCUGCCCUCUCUUACUUCUAUGUAUUUGUUUAUCGACACAC,0.263
AUUUAAAUGUUUCUAGUAACCACAUUUUUUUAAAAGUAAAAAGAAACCCAUGGUAUUGAUUUAAAUAUAUUUUAUUUAACCCAAUAGCUCAAAAACACUAUCAUUUCAAC,0.448
AUCCACCCGCCUCACCCUCCCAAAAUGCUGGGAUUACAGGCGUAAGCCACUGCACCUGGCGGGGUCUUGCUUAUUUUAAAAGAAAUAUUCUGAUUCAUAUUUUAGGACUU,0.509
UUAUUUAAUAAGAGUAAAAAUAUGUGAAUCUGGAUAUAUUUAAAAAAAGAAAUUUGAUGCCCAGAUAAUAUAUUAGGCACUACUGAUUUUUUAGUUAAAUUGAUGCACUA,0.922
AUCAAGAGCUGCUGCUUCCCUUCCAGCCAGAAAAGUGGUAAGCGGAGCAAGUGCCAAGCAGAACAGACCUUAUCAUCUGGGUAACAGACUUCUCAGUGUUGGUGCUGUGU,0.406

# Series 2 — technique: aptamer microarray, sandwich; molecule type: DNA with 2'F-ANA; sample: in vitro; tested at: 200 nM; together with: Cy3 exosite-II aptamer, 400 nM; direction: higher = stronger binding; oligonucleotide: GGTTGGTGTGGTTGG
# Target: Prothrombin, mature alpha-thrombin (F2, Homo sapiens, UniProt P00734)
# Setting: whole 15-mer aptamer, many near background
Modification,mean fluorescence intensity [a.u.]
2'F-ANA at 4 7 9 10 15,141
2'F-ANA at 1 3 4 7 10 13 14,78.9
2'F-ANA at 1 2 3 4 6 7 8 9 10 12 13 14 15,57.1
2'F-ANA at 1 2 3 4 6 10 11 13,51.2
2'F-ANA at 1 4 5 6 10 11 12 13 15,50.7
2'F-ANA at 8 9 12 13 14 15,188
2'F-ANA at 1 3 4 6 8 10 11,61.9
2'F-ANA at 1 3 4 5 6 7 11 12,99.8
2'F-ANA at 4 6 7 11 14,83.2
2'F-ANA at 1 6 7 12 13 14,318
2'F-ANA at 1 3 4 5 7 8 15,138
2'F-ANA at 2 5 6 9 10 11 12 13 15,50.3
2'F-ANA at 2 4 5 6 7 12,136
2'F-ANA at 1 2 3 6 9 15,180
2'F-ANA at 1 3 4 5 6 8 9 10 11 12 13,50.1
2'F-ANA at 1 2 3 4 6 8 9 10 11 12 13,58.9
2'F-ANA at 1 2 3 4 5 9 10 11 12 13 15,52.4
2'F-ANA at 1 3 4 5 6 7 9 10 12 14,46.5
2'F-ANA at 2 6 9 12,667
2'F-ANA at 2 5 6 7 10 11 12,49.9
2'F-ANA at 2 5 8 11 14,60.6
2'F-ANA at 2 3 4 6 8 9 12 14 15,257
2'F-ANA at 3 6 7 8 11 13 14 15,612
2'F-ANA at 1 3 7 10 11 13,94.5
2'F-ANA at 1 4 5 6 7 8 9 13 14 15,73.6

# Series 3 — technique: RNA Bind-n-Seq; molecule type: RNA; sample: in vitro; tested at: not given; setting: RNA with constant flanks, ends assumed; baseline: input RNA pool; direction: higher = stronger binding
# Target: RING finger protein unkempt homolog, zinc fingers 1-6, GST-SBP tag (UNK, Homo sapiens, UniProt Q9C0B0, residues 30-357)
# UniProt Q9C0B0, sequence (30-357, looked up): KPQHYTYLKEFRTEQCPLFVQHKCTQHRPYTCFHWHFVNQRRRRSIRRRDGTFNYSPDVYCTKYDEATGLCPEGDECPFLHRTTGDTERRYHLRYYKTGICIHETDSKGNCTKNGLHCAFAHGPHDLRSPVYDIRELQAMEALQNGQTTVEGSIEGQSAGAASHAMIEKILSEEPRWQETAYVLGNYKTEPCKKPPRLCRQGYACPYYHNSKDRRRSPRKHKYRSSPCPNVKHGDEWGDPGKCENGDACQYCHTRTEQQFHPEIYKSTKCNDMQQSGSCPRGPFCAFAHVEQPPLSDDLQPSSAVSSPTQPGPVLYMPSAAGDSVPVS
# Shared flanks, not repeated: GGGAGUUCUACAGUCCGACGAUC … CAACAGAGGAUUGAGCAUCA
Oligonucleotide,bound/input enrichment [ratio]
ACACCUGCUUUAUAUAUGCUUUCUCCUUUCAGUCCUCUAAGAAGAAUAUCUAUUAAGAUUUCCGUACACUCCUUAUUCAGCAUGCUCAUCAUGUGCACUAUUCUGACAAACUGCAUAUUU,0.422
GAACCACCUUCGAAUGAAACACCUUCCUCCACAGAAACAUCUGCUAUUCCUGAGGAGGAAACCGACUGGAUAGAGAAACAUUGUGUUAAGAUAAACAACGAUCUUCUAAUUUCCAAGGUC,0.144
CCUGACAGUAUGCUGGCCCACAUGUUUAAGGACAAAGGUGUCUGGGGAAAUAAGCAAGAUCACCGAGGAGCUUUCUUAAUUGACCGAAGUCCUGAGUACUUCGAACCCAUUUUGAACUAC,0.153
CAAGGUGGUUUCAGAGAAGUGCGGAAUGAGUAUGGCUCAAGAAUAGGAGGCAAUGAAGGGACCGAUGUCCCAAUUCCAAGAUUUGCUGUUGGCAUUGUAAUAGGAAGAAAUGGAGAAAUG,2.28
UUAGUGGUGACUUCAUUGUGCAAAUCAUCUUCUCUGCCAGCUUCCCAGAACAAUCUGCGGCACCCGGUCCUACCUCCAGCCAAUGAAUGGGAUCAUUCUGGAUGUCACCAGCCCAAUAGG,0.263
CUGGCUUAGAUAAUAUGGCUACACACUUAAGUCAGCAUGAAACUCAUUCUUGCCGAGUUCCCGCCGAGCAAGUUUCUGUUUGUAUCCCAACUUCUGAACGUCUUUCUGAAAUAAAAACUG,0.51
CAUGUGACUGUGAAGAAGCUGUUUGUUGGUGGAAUUAAGGAAGAUACUGAGGAACACCACCUCCGAGAUUACUUUGAAGAGUAUGGAAAAAUUGAUACUAUUGAAAUAAUUACCGAUAGG,0.228
CAUUGUGGAAUUCCCUAGCAAUUUAUUUAGACUUAAUUUUUUAAAUUCAAGCUUACUGUAUCCGUCAUUUUUAGCCCAUAAUUAAAACAUGAUCACUUUUACACAGGUGUAGUAUGGUGC,484
UCAGGAACUCAGACAAAUAUGAAUGUAAAUGAAGUCAUUAGCAAUAGAGCAAUUGAAAUGUCCGGAGGUGAACUUGGCAGCAAGAUACCUGUGCAUCCCAACGAUCAUGUUAAUAAAAGC,0.56
GACAUCCCACUGUUUCCAGUGCAGUCCAAGUACAUGGAUGUGGUCAAGGAGCGGAUCCGUCCCGCCCGACAGAUUGAAAAAGCUGAAUACCGGAACUUCCAGGCUUGUCUGCACAACUCA,0.114
UCAGUUAAGUUGUCAGAAAACAUGAAGGCAUCUUCCUUUAAAAAGCUACAGAAGUUCUAUACCGACCCAUACAAGCUGCUGCCGCUGCAGAGGUUUCUGCCUCGUCCUCCUGGUGAGAAA,0.2

# Series 4 — technique: EMSA with sequencing; molecule type: double-stranded DNA, one strand shown; sample: in vitro; tested at: 10 and 20 nM; baseline: negative control set to 0; direction: higher = stronger binding
# Target: Hepatocyte nuclear factor 3-alpha (Foxa1, Mus musculus, UniProt P35582, residues 1-468, full length assumed)
# Setting: whole designed probe, mean of two concentrations, ends assumed
# Shared flanks, not repeated: GTGAGCGGTGCCCATTGATGGGGAAC … TTTCACTGGGATCGTGGGGAC
# Target sequence (chain): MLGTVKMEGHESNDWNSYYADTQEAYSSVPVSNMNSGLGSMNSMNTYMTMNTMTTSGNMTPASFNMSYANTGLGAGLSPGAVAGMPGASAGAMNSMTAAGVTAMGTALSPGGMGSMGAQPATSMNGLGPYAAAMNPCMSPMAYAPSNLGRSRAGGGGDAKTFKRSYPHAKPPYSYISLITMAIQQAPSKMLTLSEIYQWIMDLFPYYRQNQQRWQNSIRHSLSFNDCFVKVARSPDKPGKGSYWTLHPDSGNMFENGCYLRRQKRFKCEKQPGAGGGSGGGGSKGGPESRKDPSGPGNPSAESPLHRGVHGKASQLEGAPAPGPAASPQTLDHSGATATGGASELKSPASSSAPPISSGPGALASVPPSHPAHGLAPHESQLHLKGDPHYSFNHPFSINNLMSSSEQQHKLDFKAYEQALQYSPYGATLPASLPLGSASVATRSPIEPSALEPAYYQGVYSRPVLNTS
Oligonucleotide,normalised bound fraction [ratio]
AGGCCTTATCACTGTGCAATCTCTTCCTCTTTCCCCAGTGCTGGTTCTCACACAATTGGTAATCAGTGTAAACTTCCTCTGACAATTTACTGAGCAATCTTTTACCATACAACTGCCCTATGTAGGGCTCTGTGCTAAGGCCCATGGGGAACCCAAGCCTGGTCTCCACCTTGGGGCATCTCGAGTCTGGTAG,-0.011
AACACTTCTTCCATTTCCTCAACTCCTAAACATTCATTTATTCATTCTTCATCACACAAAAATCTGAATCTGGCTTCTGCCCCCTACCCTCCTTATTTACTTTCTCAAATAGTATACATTTAGTCATTAAACAAACATACATACATGCATATTTTCAAGATTATCAAGCAATTCCTGTTTCAACTTTTCTTAA,0.508
CACAAAATTTTCCATTTGCTTCTCCTGCATTTAGAAGCATCCACTTCCCTCTCTTCCCTTTGCTTTTGAAATATAAGTGTAATATTTGCCCAGGGTAAACAGACTTGGAGCTTGGGAGACAGCATTGTGTAATGGATGTTAATTTGGCCTGATTTCACTCTTGGCTCTCTGATTTGTTAGATCTATGAACCTG,0.205
GTAAAATTAATCCAAAGACACGGAAAGTCCATGAATTTCAGTTCTAACAGAAAATTTTTGAATTAAATTTTCAAAAGGTTGTAACTGACAGAGTAAACATGTACTAGGTACAAGAGGTAATGAATTCTGAAGTTATGAAGTATTTGTATTCCAAGTGGAAATGCAATTGTTTACCTGAATTTTGGGCCCAGAA,0.272
TATCTTTCCTCTGACTGACAGCCTGAAGGATCGTCTATGTGATTTTTGTGTTGCTGAGGTGAAAACAATCTTTATTTGGATTGAATAGCAGAGTAATCTGGAATGAAAAAGAGACACAAAAGTTTACAGTACAGATGGTTTTCCAATTCTTTTACAAAAATTGTCTGTCTTATCAATTAAAGGTGCATTTACC,0.0113
ATCTTCCCCCTCTTCCTTGCCCCACCAGCTCACCTTCCCGGGTTATTTGCAGATAGGAAAATAAATAAAGCCGGCATTCGTTAACCCTCTTCTGGCGCAAACTGCTGTTTGCTCTGGTCCGATGAATCATGTTTGGCGACGCCAGGCTCCGGGAGAGCAAAGCACCGTGTCAGGGCCATGATCCGGGGTGGCC,0.378

# A few entries again (series 3):
Oligonucleotide,bound/input enrichment [ratio]
UCAGUUAAGUUGUCAGAAAACAUGAAGGCAUCUUCCUUUAAAAAGCUACAGAAGUUCUAUACCGACCCAUACAAGCUGCUGCCGCUGCAGAGGUUUCUGCCUCGUCCUCCUGGUGAGAAA,0.2
CAAGGUGGUUUCAGAGAAGUGCGGAAUGAGUAUGGCUCAAGAAUAGGAGGCAAUGAAGGGACCGAUGUCCCAAUUCCAAGAUUUGCUGUUGGCAUUGUAAUAGGAAGAAAUGGAGAAAUG,2.28
GACAUCCCACUGUUUCCAGUGCAGUCCAAGUACAUGGAUGUGGUCAAGGAGCGGAUCCGUCCCGCCCGACAGAUUGAAAAAGCUGAAUACCGGAACUUCCAGGCUUGUCUGCACAACUCA,0.114
UUAGUGGUGACUUCAUUGUGCAAAUCAUCUUCUCUGCCAGCUUCCCAGAACAAUCUGCGGCACCCGGUCCUACCUCCAGCCAAUGAAUGGGAUCAUUCUGGAUGUCACCAGCCCAAUAGG,0.263
